Published values gathered from unrelated publications.
Compare with care: the assays were run in different laboratories. ± marks the error that the study gave.

Structure (SMILES) | assay | test system | conditions | scale | measurement | value
N#Cc1c(-c2ccc(OCC3CC3)c(Cl)c2)ccn2c(CC(F)(F)F)cnc12 | – | human liver microsomes | 5 µM, 15 min | – | compound metabolized | 16%
O=[N+]([O-])c1ccc(/C=N/Nc2nnc(N/N=C/c3ccc([N+](=O)[O-])o3)c3ccccc23)o1 | haemolysis | human | 100 mM, 45 min | – | haemolysis | 19 to 35%
Cc1nnc(-c2ccc(OCc3cn(CCOCCOCCOCC[18F])nn3)cc2)nn1 | radio-TLC | mouse, plasma | 30 min | – | intact tracer | 85%
C(=N\Nc1nnc(N/N=C/c2ccccc2)c2ccccc12)/c1ccccc1 | haemolysis | human | 100 mM, 45 min | – | haemolysis | 19 to 35%
COc1ccc(CNc2ccc(-c3ccn4c(CC5CC5)nnc4c3C(F)(F)F)cc2F)cn1 | – | male Sprague Dawley rat, brain and plasma | subcutaneous, 10 mg/kg, 2 h | baseline: brain over plasma | tissue/plasma ratio | 0.4
CCCCCCCC(=O)NCCCC[C@@H]1NC(=O)[C@H](Cc2ccc(O)cc2)NC(=O)[C@H](C(C)C)NC(=O)[C@@H](NC(=O)[C@H](Cc2ccc(O)cc2)NC(=O)[C@@H]2CCCN2C(=O)CCN)CSSC[C@@H](C(=O)NCC(=O)NCC(=O)N[C@@H](CCCNC(=N)N)C(=O)NCC(N)=O)NC(=O)[C@H](CO)NC(=O)[C@H](Cc2c[nH]c3ccccc23)NC(=O)[C@H](CO)NC(=O)CCNC1=O | ELISA | mouse, plasma | intravenous, 10 min | – | remaining in blood | 5%
CCCCn1ccn2c(-c3ccc4[nH]ccc4c3)c(C)nc2c1=O | – | human liver microsomes | 5 µM, 15 min | – | metabolized fraction | 30%
NCCCN1CC(=O)N(Cc2cc(C(F)(F)F)cc(C(F)(F)F)c2)CC(=O)N(CCCN)CC(=O)N(Cc2cc(C(F)(F)F)cc(C(F)(F)F)c2)CC(=O)N(CCCN)CC(=O)N(Cc2cc(C(F)(F)F)cc(C(F)(F)F)c2)CC1=O | RP-HPLC C18 | – | acetonitrile gradient | – | retention time | 7.38 min
O=C(CCc1cn(CCOCCOCCOCC[18F])nn1)Nc1ccc(-c2nnc(-c3ccccn3)nn2)nc1 | PET | BALB/c nude mouse, LS174T xenograft, heart | intravenous, 1 h, added: CC49-TCO 72 h before | – | tissue uptake | 2.5 ± 0.7 %ID/g
C(=N\Nc1nnc(N/N=C/c2ccco2)c2ccccc12)/c1ccco1 | haemolysis | human | 1 mM, 45 min | – | haemolysis | 9.2%
CCCCn1ccn2c(-c3ccc(Oc4ccnc(C)c4)c(F)c3)c(C)nc2c1=O | – | Sprague Dawley rat male, brain | oral, 10 mg/kg, 4 h | – | brain concentration | 244 ng/g
[18F]CCn1cc(COc2ccc(-c3nnc(-c4ccccn4)nn3)cc2)nn1 | radio-TLC | mouse, plasma | 30 min | – | intact tracer | 10%
Fc1ccc(/C=N/Nc2nnc(N/N=C/c3ccc(F)cc3)c3ccccc23)cc1 | haemolysis | human | 100 mM, 45 min | – | haemolysis | 19 to 35%
CC(=O)NC(Cc1c[nH]c2ccccc12)C(=O)NC(CCC(=O)C=[N+]=[N-])C(=O)O (stereo not drawn) | – | C57BL/6 CES1-/- mouse, intestinal homogenate | – | – | stability | stable
NCCC(=O)N1Cc2ccccc2-c2c(nnn2-c2nc3c(N)ncnc3n2C2OC(CO)C(O)C2O)-c2ccccc21 (mixture of isomers) | – | methanol | – | – | absorption maximum | 276 nm
Cc1nnc(-c2ccc(OCc3cn([C@@H]4O[C@H](C[18F])[C@@H](O)[C@H](O)[C@H]4O)nn3)cc2)nn1 | radio-TLC | mouse, plasma | 30 min | – | intact tracer | 60%
O=c1[nH]c(=O)n(C2OC(CO)C(O)C2O)cc1-n1nnc2c1CCC1C(CO)C1CC2 (mixture of isomers) | – | methanol | – | – | absorption maximum | 270 nm
O=[N+]([O-])c1cccc(/C=N/Nc2nnc(N/N=C/c3cccc([N+](=O)[O-])c3)c3ccccc23)c1 | haemolysis | human | 100 mM, 45 min | – | haemolysis | 19 to 35%
CCCCCC(=O)OCn1cc(F)c(=O)[nH]c1=O | – | HCl or phosphate buffer | 80 µg/mL, pH 6.8, 37 °C, chemical stability | – | half-life | 36.8 ± 3.5 h
Cc1ccc(Oc2ccc(-c3ccn4c(CC5CC5)nnc4c3C(F)(F)F)cc2F)c(C)n1 | – | rat liver microsomes | 5 µM, 15 min | – | compound metabolized | 87%
NCCCN1CC(=O)N(CC(c2ccccc2)c2ccccc2)CC(=O)N(CCCN)CC(=O)N(CC(c2ccccc2)c2ccccc2)CC(=O)N(CCCN)CC(=O)N(CC(c2ccccc2)c2ccccc2)CC1=O | RP-HPLC C18 | – | acetonitrile gradient | – | retention time | 7.3 min
